{"data": "Values quoted from earlier work as cited in several papers", "note": "Numbers after ± are the reported error."}
{"SMILES": "CCC(C)C(=O)c1c(O)c(CCC(C)C)c(O)c2c1OC(=O)CC2c1ccccc1 (stereo not drawn)", "cell line": "macrophages", "CC50": "85.4 µM"}
{"SMILES": "C=C(CC)C(=O)c1ccc(OCC(=O)Nc2cccc3cn(C)nc23)c(Cl)c1Cl", "cell line": "Vero E6", "CC50": "≥ 100 µM"}
{"SMILES": "O=C(NCc1ccc(F)cc1F)c1cn2ccn(CCCCCCO)c(=O)c2c(O)c1=O", "cell line": "HOS", "effect on": "ATP level", "technique": "50% ATP reduction", "CC50": "> 250 µM"}
{"SMILES": "Cc1cn(C2C=CC(COP(=O)(O)OP(=O)(O)OP(=O)(O)O)O2)c(=O)[nH]c1=O (stereo not drawn)", "cell line": "CEM/0", "effect on": "cell proliferation", "CC50": "> 100 µM"}
{"SMILES": "O=C(CCC(CCC(=O)N[C@@H](Cc1ccc(O)cc1)C(=O)O)(CCC(=O)N[C@@H](Cc1ccc(O)cc1)C(=O)O)NC(=O)CCOCC(COCCC(=O)NC(CCC(=O)N[C@@H](Cc1ccc(O)cc1)C(=O)O)(CCC(=O)N[C@@H](Cc1ccc(O)cc1)C(=O)O)CCC(=O)N[C@@H](Cc1ccc(O)cc1)C(=O)O)(COCCC(=O)NC(CCC(=O)N[C@@H](Cc1ccc(O)cc1)C(=O)O)(CCC(=O)N[C@@H](Cc1ccc(O)cc1)C(=O)O)CCC(=O)N[C@@H](Cc1ccc(O)cc1)C(=O)O)COCCC(=O)NC(CCC(=O)N[C@@H](Cc1ccc(O)cc1)C(=O)O)(CCC(=O)N[C@@H](Cc1ccc(O)cc1)C(=O)O)CCC(=O)N[C@@H](Cc1ccc(O)cc1)C(=O)O)N[C@@H](Cc1ccc(O)cc1)C(=O)O", "cell line": "MT-4", "effect on": "cell proliferation", "CC50": "> 100 µM"}
{"SMILES": "CC(C)n1ccn2cc(C(=O)NCc3ccc(F)cc3F)c(=O)c(O)c2c1=O", "cell line": "HOS", "effect on": "ATP level", "technique": "50% ATP reduction", "CC50": "> 250 µM"}
{"SMILES": "Cc1cc(N2CCC(CO)(C3CC3)C2=O)cc(C(=O)NCc2cc(F)cc(-c3cnn(C)c3)c2)n1 (stereo not drawn)", "cell line": "MDA-MB-231", "effect on": "cytotoxicity", "CC50": "3.6 µM"}
{"SMILES": "Cc1cc(-c2ccc(C#N)cc2)cc(C)c1Nc1ccnc(Nc2ccc(C#N)cc2)n1", "cell line": "MT-4", "CC50": "2.08 µM"}
{"SMILES": "COCCCN1CCn2cc(C(=O)NCc3ccc(F)cc3F)c(=O)c(O)c2C1=O", "cell line": "HOS", "effect on": "ATP level", "technique": "50% ATP reduction", "CC50": "211 ± 3 µM"}
{"SMILES": "COc1ccc(C(=O)Nc2cc(OC)c(OC)c(OC)c2)cc1NC(=O)C(C)Br (stereo not drawn)", "cell line": "Huh7.5", "CC50": "11.8 ± 2.87 µM"}
{"SMILES": "COCCCCCCn1ccn2cc(C(=O)NCc3ccc(F)cc3F)c(=O)c(O)c2c1=O", "cell line": "HOS", "effect on": "ATP level", "technique": "50% ATP reduction", "CC50": "> 250 µM"}
{"SMILES": "Cc1cc(N2CC[C@](C#N)(C3(C)CC3)C2=O)cc(C(=O)NCc2cc(F)cc(-c3cnn(C)c3)c2)n1", "cell line": "ARPE-19", "CC50": "> 2 µM"}
{"SMILES": "C=C(CC)C(=O)c1ccc(OCC(=O)Nc2ccc3c(cnn3C)c2)c(Cl)c1Cl", "cell line": "Vero E6", "CC50": "≥ 50 µM"}
{"SMILES": "Cn1ccn2cc(C(=O)NCc3ccc(F)cc3F)c(=O)c(O)c2c1=O", "cell line": "HOS", "effect on": "ATP level", "technique": "50% ATP reduction", "CC50": "121 ± 2.7 µM"}
{"SMILES": "Cc1cc(N2CC[C@@](C#N)(C3CC3)C2=O)cc(NC(=O)Cc2ccccc2)n1", "cell line": "MDA-MB-231", "effect on": "cytotoxicity", "CC50": "0.382 µM"}
